Experimental data pooled from the literature.
Each line is one published result; not all experiments were run side by side. Several values in a cell are separate wells, animals, samples, runs or records. Numbers after ± are the reported error.
Cell line: A549

SMILES | test | conditions | how to read | quantity | value
CC1=C(Cn2c3ccc(Cl)c(=O)c-3nc3ccccc32)CCC(C)(C)C1 | cytotoxicity, WST-8 |  | reference: IC50 MRC5 over IC50 A549 | selectivity index | 0.49
COc1cc(C(=O)c2[nH]c(N)nc2-c2cccs2)cc(OC)c1OC | cell migration | 0.2 µM, 10 h |  | inhibition | 58%
CC(=O)c1cccc(NC2C(N)C(NC(=O)N(C)C)(C(C)O)C(O)C2(O)COC(=O)c2c(C)cccc2O)c1 (centres unmarked) | cytotoxicity | free compound |  | EC50 | 0.032 µM
N=C(N)NCCC[C@@H]1NC(=O)[C@H](CCCCN)NC(=O)[C@@H](Cc2ccc(O)cc2)NC(=O)[C@H](CC(=O)O)NC(=O)CNC1=O | MTT | 48 h |  | total growth inhibition | > 100 µM
CC/C=C\C/C=C\C/C=C\C/C=C\C/C=C\C/C=C\CCC(=O)Nc1ccn(C2OC(CO)C(O)C2(F)F)c(=O)n1 (centres unmarked) | NCI60 screen |  |  | TGI | 15.4 µM
Nc1cccc[n+]1Cc1cccc(C[n+]2ccccc2N)c1 | flow cytometry | 15 µM, 24 h |  | cell population in SubG0/G1 phase | 5.5%
CC(=O)OCC1(O)C(Nc2cccc(C(C)=O)c2)C(N)C(NC(=O)N(C)C)(C(C)OC(C)=O)C1(C)O (centres unmarked) | cell growth or viability |  |  | EC50 | 0.137 µM
C[C@H]1CN(C(=O)c2cn(-c3ccnc(N)n3)c3cc(C#CC4(O)CCCCC4)ccc23)CCN1 | western blot, refers to: PAK4 and LIMK1 | concentration not given, 24 h |  | phosphorylation | inhibited
C=C(CC)C(=O)c1ccc(OCC(=O)NCCNC(=O)COc2ccc(C(=O)C(=C)CC)c(Cl)c2Cl)c(Cl)c1Cl | cell growth, CCK-8 | 1.0 µM, added: cisplatin |  | sensitisation to cisplatin | ~7 fold
Nc1cccc(S(=O)(=O)N2CCCN(S(=O)(=O)c3ccc4c(c3)OCCO4)CC2)c1 | U-13C6 glucose GC-MS | 100 µM, 3 days |  | de novo lipogenesis | decreased
Cc1cc(-c2ccccc2)c2ccc3c(-c4ccccc4)cc(C)nc3c2n1.[Cl-].[Cl-].[Ru+2].c1ccc(-c2ccccn2)nc1.c1ccc(-c2ccccn2)nc1 |  | 3 µM, 6 to 12 h, dark |  | maximum cellular uptake | ~2.2 nmol/10⁶ cells
FC(F)(F)c1ccnc(-c2cc(C(F)(F)F)ccn2)c1.FC(F)(F)c1ccnc(-c2cc(C(F)(F)F)ccn2)c1.[Cl-].[Cl-].[Ru+2].c1csc(-c2ccc(-c3ccc(-c4nc5c6cccnc6c6ncccc6c5[nH]4)s3)s2)c1 | cell viability | 100 J/cm2 light, normoxia, added: visible light 400-700 nm | reference: dark over light EC50 | phototherapeutic index | 280
[Cl-].[Cl-].[Ru+2].c1ccc(-c2ccnc3c2ccc2c(-c4ccccc4)ccnc23)cc1.c1cnc2c(c1)ccc1cccnc12.c1cnc2c(c1)ccc1cccnc12 | oxygen consumption rate, Seahorse extracellular flux | 1 h, dark |  | lowest concentration inhibiting OCR | > 1 µM
CCCC1OC2CC3C4CCC5=CC(=O)C=CC5(C)C4C(O)CC3(C)C2(C(=O)COC(=O)C(N)Cc2ccccc2)O1 (centres unmarked) | IL-6 release, inhibitor, ELISA | 1 nM, 24 h, LPS-stimulated |  | inhibition | > 50%
CC1=C(Cn2c3cccc(=O)c-3nc3ccccc32)CCC(C)(C)C1 | cytotoxicity, WST-8 |  | reference: IC50 MRC5 over IC50 A549 | selectivity index | 1.79
O=C(CSc1nc2ccccc2s1)Nc1nonc1[N+](=O)[O-] | cell growth or viability, ATP luminescence |  |  | GI50 | > 40 µM
COc1cc2ncc3c(c2cc1-c1cnn(C)c1)n(-c1ccc(C#N)cc1F)c(=O)n3C |  | 1 µM, added: ionising radiation | reference: ionising radiation alone | colony formation | decreased
Cc1cccc(-c2cccc(C)n2)n1.[Cl-].[Cl-].[Ru+2].c1ccc(-c2ccccn2)nc1.c1ccc(-c2ccccn2)nc1 | oxygen consumption rate, Seahorse extracellular flux | 1 h, added: indigo light 450 nm, 29.1 J/cm2 |  | lowest concentration inhibiting OCR | > 25 µM
CCN1CCC2(CC1)C/C(=N\NC(=O)Nc1ccccc1)c1ccccc1O2 | annexin V-FITC/PI | concentration not given, 24 h, Early apoptosis |  | apoptotic cells | 28.2%
CCCC1OC2CC3C4CCC5=CC(=O)C=CC5(C)C4C(O)CC3(C)C2(C(=O)COC(=O)CN)O1 (centres unmarked) | IL-6 release, inhibitor, ELISA | 1 nM, 24 h, LPS-stimulated |  | inhibition | > 50%
CN(C)c1cccc2c(S(=O)(=O)NCCCCCC(=O)NO)cccc12 | cell cycle, propidium iodide flow cytometry | 10 µM |  | cells in G2 phase | 15.3%
Cc1cccc(NCC(=O)Nc2nc3ccccc3s2)c1 | cell growth or viability, MTT | 100 µM, 72 h |  | inhibition | 3.73%
CC(=O)OCC1=CCC2[C@]3(C)COC(c4ccccc4)O[C@@H]3CC[C@@]2(C)[C@@H]1/C=C/C1=CCOC1=O (some centres unmarked) | cell growth or viability, MTT | 20 µM, 48 h |  | inhibition | 48%
CC(=O)OC[C@H]1O[C@@H](Sc2sc(C(=O)c3ccc(Br)cc3)c(N)c2-c2nc3ccccc3s2)[C@H](OC(C)=O)[C@@H](OC(C)=O)[C@@H]1OC(C)=O | SRB | 10 µM, 48 h |  | growth | 71.5%

SMILES | test | conditions | how to read | quantity | value
COc1ccc([C@@H]2CC(=O)c3c(O)cc(O[C@@H]4O[C@H](CO[C@@H]5O[C@@H](C)[C@H](O)[C@@H](O)[C@H]5O)[C@@H](O[C@H]5O[C@H](CO)[C@@H](O)[C@H](O)[C@H]5O)[C@H](O)[C@H]4O)cc3O2)cc1O | trypan blue exclusion | 150 µg/mL, 24 h |  | cell count | 6250 ± 711
C=C1CC[C@@H]2[C@](C)(CO)[C@H](O)CC[C@@]2(C)[C@@H]1/C=C/C1=CCOC1=O | cell growth or viability, MTT | 20 µM, 48 h |  | inhibition | 34.3%
O=C(CSC(=S)N1CCCCCC1)Nc1ccc2c(c1)C(=O)c1ccccc1C2=O |  | 25 µM, 4 h |  | phosphotyrosine staining | no effect
FC(F)(F)c1ccnc(-c2cc(C(F)(F)F)ccn2)c1.FC(F)(F)c1ccnc(-c2cc(C(F)(F)F)ccn2)c1.[Cl-].[Cl-].[Ru+2].c1csc(-c2ccc(-c3ccc(-c4ccc(-c5nc6c7cccnc7c7ncccc7c6[nH]5)s4)s3)s2)c1 | cell growth or viability, resazurin | dark |  | EC50 | 120 µM
COc1ccc(/C=C/C2=[N+]3C(=C(C=O)c4c(C)c(Br)c(/C=C/c5ccc(OC)cc5)n4[B-]3(F)F)C(C)=C2Br)cc1 | resazurin | added: 645 nm light | reference: dark over light IC50 | phototoxicity index | 16 ± 12
CCNc1cc2c(cc1C)C1(c3cc(C)c(NCC)cc3O2)c2ccccc2C(=O)N1N=Cc1c[c-]c(-c2ccccn2)cc1.Cc1c(C)c(-c2ccc(-c3ccccc3)cc2)[c-](C)c1C.[Cl-].[Ir+3] |  | 2 x IC50, 24 h | reference: untreated | S phase increase | 8.58%
CC1=CC(C)=[N+]2C1=C(CO)c1c(C)cc(C)n1[B-]2(F)F | resazurin | 0.1667 h, added: 510 nm light, 10 min | reference: dark over light IC50 | phototoxicity index | 9 ± 3
Cc1ccc(C(C)C)cc1.Cc1ncc(CO)c(C=NNC2=Nc3ccccc3-c3[nH]c4ccc(Br)cc4c3C2)c1O.[Cl-].[Cl][Ru+] | DNA synthesis, BrdU incorporation | 5 µM, 24 h |  | inhibition | ~30%
COc1ccc(/C=C/C2=[N+]3C(=C(CO)c4c(C)cc(/C=C/c5ccc(OC)cc5)n4[B-]3(C)C)C(C)=C2)cc1 | resazurin | added: 645 nm light | reference: dark over light IC50 | phototoxicity index | 67 ± 26
S=c1n(-c2ccccc2)c2c3ccccc3nc3[n+]2[n]1[Ir-3]12([S]3)([c]3ccccc3-c3sc4ccccc4[n+]31)[c]1ccccc1-c1sc3ccccc3[n+]12 |  |  | reference: IC50 dark over IC50 light | phototoxicity index | > 3570
[Cl-].[Cl-].[Ru+2].c1ccc2nc(-c3ccc4ccccc4n3)ccc2c1.c1cnc2c(c1)ccc1cccnc12.c1cnc2c(c1)ccc1cccnc12 | Seahorse Mito Stress Test | concentration not given, added: 450 nm light 29.1 J/cm2 | reference: vehicle | maximal respiration reduction | < 30%
Cc1ccc(C2=Nn3c(N/N=C4/C(=O)Nc5ccc(Br)cc54)nnc3SC2)cc1 |  | 10 µM |  | growth inhibition | 17%
CCN1CCN(Cc2ccc(C(=O)Nc3ccc(C)c(NCc4cnc5[nH]ccc5c4OC)c3)cc2C(F)(F)F)CC1 | cell growth or viability | 48 h |  | GI50 | 2.29 µM
FC(F)(F)c1ccnc(-c2cc(C(F)(F)F)ccn2)c1.FC(F)(F)c1ccnc(-c2cc(C(F)(F)F)ccn2)c1.[Cl-].[Cl-].[Ru+2].c1csc(-c2nc3c4cccnc4c4ncccc4c3[nH]2)c1 | cell viability | 100 J/cm2 light, normoxia, added: visible light 400-700 nm | reference: dark over light EC50 | phototherapeutic index | 7
[Cl-].[Cl-].[Ru+2].c1ccc(-c2ccccn2)nc1.c1ccc(-c2ccccn2)nc1.c1ccc(-c2ccccn2)nc1 | oxygen consumption rate, Seahorse extracellular flux | 1 h, dark |  | lowest concentration inhibiting OCR | > 25 µM
COc1ccc([C@@H]2CC(=O)c3c(O)cc(O[C@@H]4O[C@H](CO[C@@H]5O[C@@H](C)[C@H](O)[C@@H](O)[C@H]5O)[C@@H](O)[C@H](O)[C@H]4O)cc3O2)cc1O | cell migration, scratch | 150 µg/mL, 48 h |  | gap closure | 5.16 ± 0.79%
Cc1ccc(C(C)C)cc1.O=C([N-]c1nc2ccccc2s1)c1cnccn1.[Cl-].[Ru+2] | cytotoxicity, MTT |  | reference: KMST-6 over A549 | selectivity index | > 2
Cc1cccc(-c2cccc(C)n2)n1.Cc1cccc(-c2cccc(C)n2)n1.[Cl-].[Cl-].[Ru+2].c1ccc(-c2ccnc3c2ccc2c(-c4ccccc4)ccnc23)cc1 | resazurin |  | reference: dark EC50 over light EC50 | phototoxicity index | 2.5 and > 2.5
Cc1ccc2ccc3ccc(C)nc3c2n1.Cc1ccc2ccc3ccc(C)nc3c2n1.Clc1ccc(-c2cc(-c3ccccn3)nn2-c2ccccc2)cc1.[Cl-].[Cl-].[Ru+2] | oxygen consumption rate, Seahorse extracellular flux | 1 h, added: indigo light 450 nm, 29.1 J/cm2 |  | lowest concentration inhibiting OCR | 10 µM
O=c1c2ccccc2[se]n1CCCCCCn1[se]c2ccccc2c1=O | cell growth, EZMTT |  |  | maximal inhibition | 100%
COc1cc(CNC(=O)C[C@H](C)CCC=C(C)C)ccc1OCc1cn(-c2ccc(Cl)c(Cl)c2)nn1 | flow cytometry propidium iodide | 10 µM, 48 h |  | cells in G0/G1 phase | 34.3%
CCOC(=O)C1=C(C)NC(=O)N[C@@H]1/C=C/c1ccc(OC)cc1 |  | 7 and 15 µM, 24 h | reference: vehicle DMSO | colony formation | decreased
[Cl-].[Cl][Ru-]1[S+]=C(N2CCCC2)N[N+]1=Cc1ccc(N(c2ccccc2)c2ccccc2)cc1.c1ccccc1 |  | 10 µM, 24 h, then 10 days growth |  | colony formation | inhibited

Excerpt of the above:
SMILES | test | conditions | how to read | quantity | value
CCN1CCN(Cc2ccc(C(=O)Nc3ccc(C)c(NCc4cnc5[nH]ccc5c4OC)c3)cc2C(F)(F)F)CC1 | cell growth or viability | 48 h |  | GI50 | 2.29 µM
FC(F)(F)c1ccnc(-c2cc(C(F)(F)F)ccn2)c1.FC(F)(F)c1ccnc(-c2cc(C(F)(F)F)ccn2)c1.[Cl-].[Cl-].[Ru+2].c1csc(-c2nc3c4cccnc4c4ncccc4c3[nH]2)c1 | cell viability | 100 J/cm2 light, normoxia, added: visible light 400-700 nm | reference: dark over light EC50 | phototherapeutic index | 7
[Cl-].[Cl-].[Ru+2].c1ccc(-c2ccccn2)nc1.c1ccc(-c2ccccn2)nc1.c1ccc(-c2ccccn2)nc1 | oxygen consumption rate, Seahorse extracellular flux | 1 h, dark |  | lowest concentration inhibiting OCR | > 25 µM
COc1ccc([C@@H]2CC(=O)c3c(O)cc(O[C@@H]4O[C@H](CO[C@@H]5O[C@@H](C)[C@H](O)[C@@H](O)[C@H]5O)[C@@H](O)[C@H](O)[C@H]4O)cc3O2)cc1O | cell migration, scratch | 150 µg/mL, 48 h |  | gap closure | 5.16 ± 0.79%
Cc1ccc(C(C)C)cc1.O=C([N-]c1nc2ccccc2s1)c1cnccn1.[Cl-].[Ru+2] | cytotoxicity, MTT |  | reference: KMST-6 over A549 | selectivity index | > 2
Cc1cccc(-c2cccc(C)n2)n1.Cc1cccc(-c2cccc(C)n2)n1.[Cl-].[Cl-].[Ru+2].c1ccc(-c2ccnc3c2ccc2c(-c4ccccc4)ccnc23)cc1 | resazurin |  | reference: dark EC50 over light EC50 | phototoxicity index | 2.5 and > 2.5
Cc1ccc2ccc3ccc(C)nc3c2n1.Cc1ccc2ccc3ccc(C)nc3c2n1.Clc1ccc(-c2cc(-c3ccccn3)nn2-c2ccccc2)cc1.[Cl-].[Cl-].[Ru+2] | oxygen consumption rate, Seahorse extracellular flux | 1 h, added: indigo light 450 nm, 29.1 J/cm2 |  | lowest concentration inhibiting OCR | 10 µM
O=c1c2ccccc2[se]n1CCCCCCn1[se]c2ccccc2c1=O | cell growth, EZMTT |  |  | maximal inhibition | 100%
